Published values pooled from the literature.
Every numbered part comes from another study and shows a few of its results, in no order. Positions count from the first letter of the parent shown.

Sample 1
Target: CCNB1, cyclin fold, Cln2 fusion (human)
Technique: yeast growth competition, sequencing
Matrix: yeast
Setting: weak parent motif
Reference: not given
Reading: higher = stronger binding
Starting sequence: ANKRD17 docking peptide (human); PSVRRQLFVTVVK
Under “normalised enrichment score”, `PSVRKQLLVTVVK [R5K F8L]` is recorded as 0.509.
`PSVRRQLFVAVVK [T10A]`: “normalised enrichment score” 1.72.
`PSVRKQLFVTVVK [R5K]` — result for “normalised enrichment score”: 0.328.
`PSVRAQLFVTVVK [R5A]`: “normalised enrichment score” 1.68.
`PSVRRQLFATVVK [V9A]` — result for “normalised enrichment score”: 0.625.
For `PSVRRQLFVTAVK [V11A]`, “normalised enrichment score” read 1.35.
For `PSARRQLFVTVVK [V3A]`, “normalised enrichment score” read 0.561.
For `PAVRRQLFVTVVK [S2A]`, “normalised enrichment score” read 1.31.
Under “normalised enrichment score”, `PSVARQLFVTVVK [R4A]` is recorded as 0.992.
Under “normalised enrichment score”, `PSVRAQAFVTVVK [R5A L7A]` is recorded as 0.403.

Sample 2
Target: RNA binding protein fox-1 homolog 2, RRM domain, GST-SBP tag (RBFOX2, Homo sapiens, UniProt O43251-10, residues 100-194)
Technique: RNA Bind-n-Seq
Molecule type: RNA
Matrix: in vitro
Concentration: 365 nM
Setting: natural RNA segment, single round, ends assumed
Reference: no-protein control
Reading: higher = stronger binding
Constant ends, left off below: GGGAGUUCUACAGUCCGACGAUC … UGGAAUUCUCGGGUGCCAA
Construct (chain): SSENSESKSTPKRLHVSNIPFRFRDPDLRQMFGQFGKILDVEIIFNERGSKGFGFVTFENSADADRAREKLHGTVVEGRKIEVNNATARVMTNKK
`UGGAGCUGUUUAUGGCAAUUUAAUACCAUUCUCUUUGUAAAGUGAAUAAAUACUCAUCUUUACCCAGCGCGUGUCUCGUGGUGUAUAUAGAGUGCACAGGUGUGUGUUUG`: “RBNS enrichment (R)” 0.372.
`AGCCGCCUGCACAGCCUGGAACCUGCAUUGAUACUGGGGCAGGAAUUCGCCCUCACAGAGGGCGUGUGGUCCACGAAGCUGUCUACAGGGGAGGCUGCAGGCAGGAAGCA` — result for “RBNS enrichment (R)”: 1.03.
`ACAUAUCUUUACAGCUUAUUUGAAUGUGAGAAUUGGAAUAUUACCUGUAUAUAUCAGAUGAGCAGUGAUGACUUCUAUAACUGUUGGCUUUAAUAUUUUUCAUUUAGCUA`: “RBNS enrichment (R)” 0.442.
`UUUGUGGAUGGGAGACAGCAGGAUUAGCUUCAGCUUGGGCUGGAGCAGUCAAUAUAGGAUCUCAGGCCAGGCCCGCUUUUCUAGAAUGUGUUUAAUUUUGAGUUUGCUUU`: “RBNS enrichment (R)” 0.901.
`CUCAUAAGAAGCAAUAAAUGCAUAAAGCAUUAUAUUAAAAUACCAGGGUUACUUAUGUCAUUGACAGGGAAAAGACUUUGUAUAAACAAUUAUGCACCAUCUAUUUUUGU` — result for “RBNS enrichment (R)”: 0.421.
For `CCUAUAAAAAAUUUUAUUGAUGUUUAUGGUCAUGUUAGCUAUCAGAGAGCUAUUGGAGUGAGAGCUGAGGUGUCCUUAACCACUUUUUCUCUCCUAGAUUCAUUUUCAUU`, “RBNS enrichment (R)” read 0.828.
`CUUUUGAGCAGCGAUUGCUGGAUCAUUGAUCUGUUUGAGGAAGUGUCUGACCUGGGCCUGAGAGCUGGAGAAGGUGCAGAUUCAAAGUGAGCGGCUCCUGAGGAGAGCCG`: “RBNS enrichment (R)” 1.84.
For `ACUGAGUAGGCGGCGAUUUUUGUAUGUUAUGAACAUGCAGUUCAUUAUUUUGUGGUUCUAUUUUACUUUGUACUUGUGUUUGCUUAAACAAAGUGACUGUUUGGCUUAUA`, “RBNS enrichment (R)” read 0.527.
`CUGACAAGGACUUCGCCUGGCUCUCCUAGGCCCGCCCGCCGGCAGGGUCGGUGGCUGCCUCGCUCCGUCCACCCGUGUGUGUGUCCGGUGGGUCUCCACUGCGGGGCCAG`: “RBNS enrichment (R)” 0.325.
`UUGGGGGUUGCUUGUGAAAUUAGGCUAAGUCAUUUGUAGACUAAUCAGUGAUUGUAAGUUUGCCUGAUACUCAGCACACAUCUAUGUUUUCCUAUGAGCAGUUCAACCUG`: “RBNS enrichment (R)” 0.471.
Under “RBNS enrichment (R)”, `UGCACUAGGGCUUGUCCGUCCAUAAGGAAUUCCCCUCUGCUUUGCUCAAAGGACCAAAUUUCUUUGGCCAAAGAAGUUGCUUCUAUGUUAGUCCCAUACCCUGAAGUAAU` is recorded as 0.498.
For `UAAUCUCCCCCUAGCUUCAAGCUGUACAUAGGGCCUCCCAGUGCAAAUCCUCCUGCCCAUACCGUGCACCCUUAGAAGCCUGCGUGUGCAUAGAGCGCCCCCUACUUCCC`, “RBNS enrichment (R)” read 0.612.

Sample 3
Target: NFIL3, bZIP domain (human)
Technique: DHFR protein complementation
Matrix: yeast
Setting: single substitutions, most at no-binding floor
Reference: wild-type JUN-FOS pair
Reading: higher = stronger binding
Starting sequence: JUN, bZIP domain (human); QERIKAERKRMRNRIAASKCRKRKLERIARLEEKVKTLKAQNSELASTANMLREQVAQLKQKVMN; partner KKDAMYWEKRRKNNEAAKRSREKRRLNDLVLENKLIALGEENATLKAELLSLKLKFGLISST
With `R30S` the binding fitness was -1.34 natural log.
With `T48F` the binding fitness was -1.5 natural log.
`L52K` has a binding fitness of -1.5 natural log.
For `A29D`, the binding fitness was -1.43 natural log.
`L59T` gave a binding fitness of -1.49 natural log.
For `I28N`, the binding fitness was -1.36 natural log.
`E32L` gave a binding fitness of -1.42 natural log.
`E54I` has a binding fitness of -1.46 natural log.
With `Q41W` the binding fitness was -1.58 natural log.
`N42R` gave a binding fitness of -1.5 natural log.
`T37K` gave a binding fitness of -1.14 natural log.
With `L45R` the binding fitness was -1.53 natural log.
For `L59G`, the binding fitness was -1.42 natural log.
`A40H` has a binding fitness of -1.41 natural log.
The binding fitness of `E32N` is reported as -1.41 natural log.
With `N42M` the binding fitness was -1.52 natural log.
With `L59R` the binding fitness was -1.59 natural log.
The binding fitness of `Q55H` is reported as -1.38 natural log.
`A57Q` has a binding fitness of -1.46 natural log.
`V56G` has a binding fitness of -1.51 natural log.

Sample 4
Target: Hepatocyte nuclear factor 3-alpha (Foxa1, Mus musculus, UniProt P35582, residues 1-468, full length assumed)
Technique: EMSA with sequencing
Molecule type: double-stranded DNA, one strand shown
Matrix: in vitro
Concentration: 10 and 20 nM
Setting: whole designed probe, mean of two concentrations, ends assumed
Reference: negative control set to 0
Reading: higher = stronger binding
Constant ends, left off below: GTGAGCGGTGCCCATTGATGGGGAAC … TTTCACTGGGATCGTGGGGAC
Target sequence (chain): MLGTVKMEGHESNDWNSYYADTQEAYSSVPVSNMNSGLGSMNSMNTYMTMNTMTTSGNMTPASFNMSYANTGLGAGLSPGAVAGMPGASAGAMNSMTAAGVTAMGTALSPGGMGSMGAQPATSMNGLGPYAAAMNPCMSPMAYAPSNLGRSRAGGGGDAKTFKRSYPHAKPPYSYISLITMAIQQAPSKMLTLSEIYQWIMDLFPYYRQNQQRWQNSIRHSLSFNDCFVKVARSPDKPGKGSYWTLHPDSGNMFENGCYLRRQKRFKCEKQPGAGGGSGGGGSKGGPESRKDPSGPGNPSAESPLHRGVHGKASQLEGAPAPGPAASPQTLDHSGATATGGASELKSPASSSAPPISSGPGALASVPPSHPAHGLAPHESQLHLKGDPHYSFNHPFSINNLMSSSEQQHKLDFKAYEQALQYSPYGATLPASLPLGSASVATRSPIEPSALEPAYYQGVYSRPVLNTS
Under “normalised bound fraction”, `AAGGCATCCCATAGATGATGGTTACAAATCAGCACAGGATTAAAATAGTGCCCCCAACACATTAAAAGCTGACTCTGCTGGGTGTGGCTTAAGTAATCTTCTCGTCTCAACTGGACAGCTACCCAGTAACACAGCCACAGAAACCGAAAATATGTGAGTACATAAGTAAAGTGCTTCTTTTGGAGGGGGTGGG` is recorded as -0.0311 ratio.
`CAGTTTTGCAAAGACGGAGTCCGTCAGAGAAAGCATTTGTTTGATTTCATGCATTTGTGTTTCCTTTGTCCATTTCCTTTATATTTATTTATTAGATTATTTATTTTTTTGAGACGGAGTTTCGATCCTCTCGCCCAGGCTGGAGTGCAATATCGCGATCTCGGCTCACTGCAACCTCCCCCTCCCGGGTTCA`: “normalised bound fraction” 0.378 ratio.
Under “normalised bound fraction”, `ATCTTCCCCCTCTTCCTTGCCCCACCAGCTCACCTTCCCGGGTTGTTTACTTTGAGGAAATTAATATAAGCCGGCATTCGTTAACCCTCTTCTGGCGCAAACTGCACATTGGTCTGGATGAATCATGGTCCTTTGGCGACGCCAGGCTCCGGGAGAGCAAAGCACCGTGTCAGGGCCATGATCCGGGGTGGCC` is recorded as 0.231 ratio.
For `ATCCACGAACCTGGCCCTGTCTGGTAACCACAGTGAACCATCGCAAGATACAGCACTATGTGCCCAGTTGGGCTTAATGACTCACGGAAATGTGTCAACACTGGCACATCCTCAGGGACACGGAAGTGTACTTGTTTTTGGAGAGGGACTAGACCTTCATCCTTGAGGTGAAGAAGATTTTCTCTCCAGGGTG`, “normalised bound fraction” read 0.0418 ratio.
Under “normalised bound fraction”, `TAGCAGGTCACTGCCAGTCACGAGGGCAGAGAGACCCAAAGGATCAGAGAACAGCTCTGAGCAGGTCAAGGGCAGTGCCAGAAGGAAAGCCTTTGTTTACAGAGGGAAAGATCCTGCACCTTGAAGTGAGGCATTAAAGAGTAGAGGGGCTTTGCACCTGCATCCTAAGCCTCTTGGTTCACCACTAAGCCGC` is recorded as 0.395 ratio.
Under “normalised bound fraction”, `TGTGAGCTTGTTTGTTCACTGAAAGCACTCATCATAAGCCTCATCAATATAAAAACTCTTGGTAGGACCAAGGGCAAACTAAGCTGAAGATCATGTTTGCATAGTTGTCCTGCAACTTACCAACGTAGTTCAGAATAGAGTATGTCAAACCACCTTATAAAAACTGGGGCATCTGAAGGCATAAAAGTGTTCA` is recorded as 0.335 ratio.
`ACTTTAATTACGATCATTTGGCTTCCACCTGCCTGAACCCGATACCTTACACGGGAACCTGTATGATGTGAGTTTACCAGATTGATCTTTCTTGTTTACTTTTGGAGACAGTTCTCTTGGGAGAAGTGGTGTCCATCCTATTTAATAAAGTAAGTTTTACTTTATCTAATTCTGGCTTGTTTTCTTAAACACC` — result for “normalised bound fraction”: 0.447 ratio.
`ATGTGCTAAAAATACAAGACTTGCTTACGCAGAGAGCCGGGAGCTATGTTCCAGTGAGGGTGGAAACAAAAGCCTCAGTATAAGACTGTCAGGTGTTTACACTTGCTCAAGGGTGTGGTATGTGGCAACACGAGGTTGCTGGACTCCACATGCTGAGGCTCAAAGTAGAAATCACTGATCTTATGTCACATAT` — result for “normalised bound fraction”: 0.234 ratio.

Sample 5
Target: ABI1, truncated, D143A, DHFR fusion (Arabidopsis thaliana)
Technique: DHFR PCA, deep sequencing
Matrix: yeast
Setting: methotrexate growth selection, single substitutions
With: (+)-ABA 4.8 µM
Reference: wild-type fitted maximum
Reading: higher = stronger binding
Starting sequence: PYL1, truncated, DHFR fusion (Arabidopsis thaliana); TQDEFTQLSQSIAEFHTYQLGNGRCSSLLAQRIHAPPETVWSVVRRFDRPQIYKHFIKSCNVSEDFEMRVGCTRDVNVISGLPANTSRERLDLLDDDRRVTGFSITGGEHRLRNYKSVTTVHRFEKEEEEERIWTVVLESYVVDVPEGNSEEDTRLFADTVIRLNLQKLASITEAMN; partner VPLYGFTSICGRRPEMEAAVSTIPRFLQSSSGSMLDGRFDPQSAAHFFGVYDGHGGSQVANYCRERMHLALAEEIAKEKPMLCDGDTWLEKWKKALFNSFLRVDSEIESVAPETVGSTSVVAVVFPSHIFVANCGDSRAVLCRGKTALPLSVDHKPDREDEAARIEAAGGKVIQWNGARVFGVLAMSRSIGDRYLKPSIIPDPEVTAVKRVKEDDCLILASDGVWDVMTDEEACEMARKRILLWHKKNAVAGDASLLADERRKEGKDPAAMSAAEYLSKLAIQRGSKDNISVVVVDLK
Under “relative binding score”, `T135M` is recorded as -0.202%.
Under “relative binding score”, `R155Y` is recorded as -8.07%.
`L164A` — result for “relative binding score”: 66.2%.
`L169Y`: “relative binding score” 17.6%.
`T17D` — result for “relative binding score”: 16%.
Under “relative binding score”, `V143C` is recorded as 73.9%.
For `L93E`, “relative binding score” read 26.8%.
Under “relative binding score”, `C60D` is recorded as -4.17%.
For `L138Y`, “relative binding score” read 4.91%.
`G148D`: “relative binding score” 44.1%.
`L29M` — result for “relative binding score”: 44.2%.
`E38Q`: “relative binding score” 46.4%.
Under “relative binding score”, `W41S` is recorded as 0.631%.
`Y53K` — result for “relative binding score”: -27.3%.
`T154P`: “relative binding score” -1.8%.

Repeated from above (sample 3):
`V56G` has a binding fitness of -1.51 natural log.
`L52K` has a binding fitness of -1.5 natural log.
`N42R` gave a binding fitness of -1.5 natural log.
For `A29D`, the binding fitness was -1.43 natural log.
With `R30S` the binding fitness was -1.34 natural log.
